Results collected from several papers.
Each numbered part is a random draw from the data of one study; scales do not carry over between parts.
UniProt P54753, sequence (whole entry, looked up): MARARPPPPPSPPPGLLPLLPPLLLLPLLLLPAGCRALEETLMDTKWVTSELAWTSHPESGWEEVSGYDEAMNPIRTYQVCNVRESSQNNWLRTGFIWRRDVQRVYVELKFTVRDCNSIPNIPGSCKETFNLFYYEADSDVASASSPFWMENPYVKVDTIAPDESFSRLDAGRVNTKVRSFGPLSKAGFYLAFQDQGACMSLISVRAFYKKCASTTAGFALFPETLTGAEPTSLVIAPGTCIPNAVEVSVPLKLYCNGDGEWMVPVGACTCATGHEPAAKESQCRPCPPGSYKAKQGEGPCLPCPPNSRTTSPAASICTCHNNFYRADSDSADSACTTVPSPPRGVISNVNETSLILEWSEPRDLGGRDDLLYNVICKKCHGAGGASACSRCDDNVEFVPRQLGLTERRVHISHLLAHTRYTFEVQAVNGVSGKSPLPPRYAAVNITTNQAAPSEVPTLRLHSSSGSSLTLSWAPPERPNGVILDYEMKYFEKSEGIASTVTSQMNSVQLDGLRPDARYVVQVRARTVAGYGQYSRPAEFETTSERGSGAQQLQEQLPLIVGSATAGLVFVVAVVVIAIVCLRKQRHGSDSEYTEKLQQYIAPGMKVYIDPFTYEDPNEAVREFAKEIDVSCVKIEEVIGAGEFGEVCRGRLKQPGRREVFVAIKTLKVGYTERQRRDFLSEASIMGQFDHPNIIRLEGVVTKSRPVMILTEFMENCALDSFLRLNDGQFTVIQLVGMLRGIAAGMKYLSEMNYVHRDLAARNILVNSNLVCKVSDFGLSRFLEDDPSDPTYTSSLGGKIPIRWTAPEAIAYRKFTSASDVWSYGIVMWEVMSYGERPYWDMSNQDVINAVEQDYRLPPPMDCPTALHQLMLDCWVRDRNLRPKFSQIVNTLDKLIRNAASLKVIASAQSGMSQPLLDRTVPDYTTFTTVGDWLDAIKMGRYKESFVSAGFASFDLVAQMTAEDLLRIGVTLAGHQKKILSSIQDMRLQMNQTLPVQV

Study 1
Target: POU, POU domain (Salpingoeca helianthica)
Method: Spec-seq
Molecule type: double-stranded DNA, one strand shown
Matrix: in vitro
Concentration: not given
Setting: whole probe, mean of replicates
Relative to: not given
Reading: lower = stronger binding
Shared flanks, not repeated: GAGTCGTCTCGTCAGCAC … CCGTAGAGCACTCAGGTC
Target sequence (chain): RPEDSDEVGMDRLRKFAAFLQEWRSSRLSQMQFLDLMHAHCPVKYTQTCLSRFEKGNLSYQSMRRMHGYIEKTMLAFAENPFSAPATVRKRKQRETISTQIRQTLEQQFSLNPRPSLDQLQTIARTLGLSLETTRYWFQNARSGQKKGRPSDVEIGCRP
Strand	relative binding energy [ln ratio]
CCGCTAAT	0.658
ATTTTAAT	-0.146
ATGCGAGC	1.28
ATCCATAT	0.933
ATGCGTCT	1.19
ATAGTCAT	0.942
GGGATAAT	0.402
ATGGGGAT	1.42

Study 2
Target: Interferon regulatory factor 5, full length, phosphomimetic (IRF5, Homo sapiens, UniProt Q13568-2, residues 1-514, S451D/S453D/S456D/S462D)
Method: protein-binding microarray
Molecule type: double-stranded DNA, one strand shown
Matrix: in vitro
Concentration: 940 nM top
Setting: 60-bp whole probe
Added: salmon DNA 0.4 mg/ml
Relative to: random background probes
Reading: higher = stronger binding
Shared flanks, not repeated: GCCTAGCAC … GTCTTGATTCGCTTGACGCTGCTG
Strand	fitted relative affinity
TTAGCACTGCTTATCCTTTAGTGCTAG	-0.0215 z-score
GAAGTAATTTCAAACCACAGGTGCTAG	0.0758 z-score
TTAGATATCAGTAGCGATTAGTGCTAG	-0.0514 z-score
TTAGAACTGAGTAGCGATTAGTGCTAG	-0.405 z-score
GCTGGTCACTCTCTGGGCTGGTGCTAG	0.123 z-score
GACGGCCTGGGGTTTCGGGACGTGCTA	1.61 z-score
CTGGCTATTTTATATGCTATGGTGCTA	-0.0863 z-score
GATCCTTCCCCTCTAGGTTCGTGCTAG	0.968 z-score

Study 3
Target: Sal-like protein 4, full length isoform B (SALL4, Homo sapiens, UniProt Q9UJQ4-2, residues 1-616)
Method: universal PBM
Molecule type: double-stranded DNA, one strand shown
Matrix: in vitro
Concentration: not given
Setting: 8-mer, flanks averaged, mean of replicates
Reading: higher = stronger binding
Strand	E-score
GTTAAATA	0.314
CCATACCG	-0.0873
CAGCACCA	-0.218
CCGGGATA	-0.128
CAGTGTGG	-0.0673
CAGATAAC	0.155
CTCAGTCA	-0.0656
CTTTTGCA	0.0743

Further values, each from its own experiment
Compound	target	assay	setting	how to read	quantity	value
O=c1c2ccccc2[nH]c(=S)n1CCN1CCC(=C(c2ccc(F)cc2)c2ccc(F)cc2)CC1	Ephrin type-B receptor 3 (EPHB3, Homo sapiens, UniProt P54753)	enzyme activity, inhibitor	0.5 µM	relative to: control	remaining activity	92.8%

For quick reference, copied from above (study 1):
Strand	relative binding energy [ln ratio]
CCGCTAAT	0.658
GGGATAAT	0.402
